Assay results gathered from unrelated publications.
Compare with care: the assays were run in different laboratories. Numbers after ± are the reported error.

COc1cc(C(=O)NCCOCCOCCOCCNC(=O)c2ccc([18F])nc2)ccc1NC(=O)C1NC(CC(C)(C)C)C(C#N)(c2ccc(Cl)cc2F)C1c1cccc(Cl)c1F (stereo not drawn)
tracer uptake (HepG2 tumour model; host not given, muscle; 30 min, tumour-bearing): 2.43 %ID/g

O=C(O)CCC(NP(=O)(O)OCCC[C@@H](NC(=O)CCC(NC(=O)CCCCCNC(=O)c1ccc([18F])cc1)C(=O)O)C(=O)O)C(=O)O (stereo partly drawn)
tracer uptake (CWR22Rv1 tumour model; host not given, heart; intravenous, 2 h, tumour-bearing): 0.17 %ID/g

CC(=CCC(O)C(C)=Cc1csc(C)n1)CC=CC(C)C(O)C(C)C(=O)C(C)(C)C(O)CC(=O)O (stereo not drawn)
half-life (human, plasma; intravenous infusion, 48 mg/m2 KOS-1584, 3 h infusion, cycle 1): 31.3 ± 9.76 h

[2H]C([2H])([2H])C([2H])([2H])C([2H])([2H])OC(C(=O)OC1CCNCC1)(c1ccccc1)c1ccccc1
half-life (male human, plasma; oral, 12 mg, multiple doses): 75.7 h

c1ccc(C2(CCNC3CCC4(SCCS4)c4ccccc43)CCOC3(CCCC3)C2)nc1 (stereo not drawn)
half-life (Sprague-Dawley rat, plasma; intravenous, 0.05 mg/kg): 1.37 h

CC(C)C[C@H](NC(=O)[C@H](Cc1ccc(O)cc1)NC(=O)[C@@H]1CCCN1C(=O)[C@H](CCCNC(=N)N)NC(=O)[C@@H]1CCCN1C(=O)[C@H](CCCCN)NC(=O)[C@H](CC(=O)O)NC(=O)[C@@H]1CCCN1C(=O)[C@H](CCCNC(=N)N)NC(=O)C1(N)CCCCC1)C(=O)N1CCC[C@H]1C(=O)N[C@@H](CCCNC(=N)N)C(=O)N1CCC[C@H]1C(=O)N[C@@H](CCCNC(=N)N)C(=O)N1CCC[C@H]1C(=O)N1CCC[C@H]1C(=O)N[C@@H](CCCNC(=N)N)C(=O)N1CCC[C@H]1C(=O)N[C@H](C(=O)N[C@@H](CCCNC(=N)N)C(=O)N[C@@H](CSc1c(F)c(F)c(-c2c(F)c(F)c(SC[C@H](NC(=O)[C@H](CCCNC(=N)N)NC(=O)[C@@H](NC(=O)[C@@H]3CCCN3C(=O)[C@H](CCCNC(=N)N)NC(=O)[C@@H]3CCCN3C(=O)[C@@H]3CCCN3C(=O)[C@H](CCCNC(=N)N)NC(=O)[C@@H]3CCCN3C(=O)[C@H](CCCNC(=N)N)NC(=O)[C@@H]3CCCN3C(=O)[C@H](CC(C)C)NC(=O)[C@H](Cc3ccc(O)cc3)NC(=O)[C@@H]3CCCN3C(=O)[C@H](CCCNC(=N)N)NC(=O)[C@@H]3CCCN3C(=O)[C@H](CCCCN)NC(=O)[C@H](CC(=O)O)NC(=O)[C@@H]3CCCN3C(=O)[C@H](CCCNC(=N)N)NC(=O)C3(N)CCCCC3)C(C)C)C(=O)NN)c(F)c2F)c(F)c1F)C(=O)NN)C(C)C
half-life (chemical stability, HPLC; human, serum; 0.1 µg/µL, pH 7.4): ~1 h

CN[C@](C)(C[18F])C(=O)O
tracer uptake (A549 tumour model; host not given, heart; 15 min, tumour-bearing): 3.7 %ID/g

N=C(N)NCCC[C@@H]1NC(=O)[C@H](CCCCNC(=O)CC[C@H](NC(=O)CCOCCOCCOCCOCCNC(=O)CN2CCN(CC(=O)O)CCN(CC(=O)O)CCN(CC(=O)O)CC2)C(=O)NCCCC[C@@H]2NC(=O)[C@@H](Cc3ccccc3)NC(=O)[C@H](CC(=O)O)NC(=O)CNC(=O)[C@H](CCCNC(=N)N)NC2=O)NC(=O)[C@@H](Cc2ccccc2)NC(=O)[C@H](CC(=O)O)NC(=O)CNC1=O [indium-111 labelled]
tissue uptake (female athymic nude mice, blood; intravenous, 3 µCi, 1 h, U-87 MG glioma xenograft): 0.51 ± 0.09 %ID/g

CSCC[C@H](NC(=O)CNC(=O)[C@H](CC(=O)O)NC(=O)[C@@H](NC(=O)[C@@H](NC(=O)[C@@H](NC(=O)CNC(=O)[C@H](CCC(N)=O)NC(=O)[C@H](CCSC)NC(=O)[C@H](CC(=O)O)NC(=O)[C@H](C)NC(=O)[C@H](C)NC(=O)[C@@H](NC(=O)[C@H](CO)NC(=O)[C@@H](N)CC(C)C)[C@@H](C)O)C(C)C)C(C)C)[C@@H](C)O)C(=O)N[C@@H](C)C(=O)N[C@@H](CO)C(=O)NCC(=O)N[C@@H](CC(C)C)C(=O)N[C@@H](CC(=O)O)C(=O)N[C@@H](CCCCN)C(=O)N[C@@H](CC(=O)O)C(=O)N[C@@H](Cc1ccc(O)cc1)C(=O)N[C@@H](CC(C)C)C(=O)N[C@@H](CCCCN)C(=O)N1CCC[C@H]1C(=O)N[C@@H](CC(=O)O)C(=O)N[C@@H](CC(=O)O)C(=O)O
half-life (human, serum; intravenous, 1.66 mg/kg, patients, infusion): 0.054 h

CC(C)(CCCC/C=C/CCCCCC(C)(C)C(=O)O)C(=O)O
half-life (allometric estimate from V/CL; beagle dog, plasma): 21.5 h

CCCCCCCCC=CCCCCCCCC(=O)OCC1OC(n2ccc(N)nc2=O)C(F)(F)C1O (stereo not drawn)
half-life (beagle dog, plasma; intravenous, 2 to 6 mg/kg): 0.05 to 0.07 h

O=C(O)CCC(NP(=O)(O)OCCC[C@@H](NC(=O)CCC(NC(=O)c1ccc([18F])cc1)C(=O)O)C(=O)O)C(=O)O (stereo partly drawn)
tracer uptake (PC-3 tumour model; host not given, liver; intravenous, 2 h, tumour-bearing): 0.44 %ID/g

CC[C@H](C)C(=O)N1CCC(NC(=O)Nc2ccc(OC(F)(F)F)c(F)c2)CC1
half-life (human, plasma; oral, 16 mg, single dose, healthy volunteers): 44.8 h

CSCC[C@H](NC(=O)CNC(=O)CNC(=O)[C@H](CO)NC(=O)[C@H](CC(C)C)NC(=O)[C@@H]1CCCN1C(=O)[C@H](CO)NC(=O)[C@H](CC(N)=O)NC(=O)[C@H](CC(C)C)NC(=O)[C@H](C)NC(=O)[C@@H](NC(=O)[C@H](CC(C)C)NC(=O)[C@H](Cc1c[nH]cn1)NC(=O)[C@H](CC(C)C)NC(=O)[C@@H](NC(=O)[C@@H]1CCCN1C(=O)[C@H](CCC(N)=O)NC(=O)[C@H](Cc1ccccc1)NC(=O)[C@H](CC(=O)O)NC(=O)[C@H](CCCNC(=N)N)NC(=O)[C@H](Cc1c[nH]cn1)NC(=O)[C@H](CO)NC(=O)[C@H](Cc1c[nH]cn1)NC(=O)[C@H](CCSC)NC(=O)[C@H](CC(=O)O)NC(=O)CNC(=O)[C@H](CCCNC(=N)N)NC(=O)[C@H](CC(=O)O)NC(=O)CNC(=O)[C@@H](N)CCCNC(=N)N)C(C)C)C(C)C)C(N)=O
half-life (metabolic stability; cynomolgus monkey, blood; 20 µg/mL, whole blood): 0.0101 h

CC(C)C[C@@H](NC(=O)[C@@H](Cc1ccccc1)NC(=O)[C@H](N)Cc1ccccc1)C(=O)N[C@H](CCCCN)C(=O)N1CCC(N)(C(=O)O)CC1
half-life (human, plasma; intravenous, 15 µg/kg): 2 h

A few entries again:
CC(C)(CCCC/C=C/CCCCCC(C)(C)C(=O)O)C(=O)O
half-life (allometric estimate from V/CL; beagle dog, plasma): 21.5 h

CSCC[C@H](NC(=O)CNC(=O)CNC(=O)[C@H](CO)NC(=O)[C@H](CC(C)C)NC(=O)[C@@H]1CCCN1C(=O)[C@H](CO)NC(=O)[C@H](CC(N)=O)NC(=O)[C@H](CC(C)C)NC(=O)[C@H](C)NC(=O)[C@@H](NC(=O)[C@H](CC(C)C)NC(=O)[C@H](Cc1c[nH]cn1)NC(=O)[C@H](CC(C)C)NC(=O)[C@@H](NC(=O)[C@@H]1CCCN1C(=O)[C@H](CCC(N)=O)NC(=O)[C@H](Cc1ccccc1)NC(=O)[C@H](CC(=O)O)NC(=O)[C@H](CCCNC(=N)N)NC(=O)[C@H](Cc1c[nH]cn1)NC(=O)[C@H](CO)NC(=O)[C@H](Cc1c[nH]cn1)NC(=O)[C@H](CCSC)NC(=O)[C@H](CC(=O)O)NC(=O)CNC(=O)[C@H](CCCNC(=N)N)NC(=O)[C@H](CC(=O)O)NC(=O)CNC(=O)[C@@H](N)CCCNC(=N)N)C(C)C)C(C)C)C(N)=O
half-life (metabolic stability; cynomolgus monkey, blood; 20 µg/mL, whole blood): 0.0101 h
